Measured values pooled from the literature.
Protocols differ between the studies behind these lines. ± marks the error that the study gave.

| SMILES | test | system | conditions | tissue uptake |
| --- | --- | --- | --- | --- |
| N#C[C@@H]1CC(F)(F)CN1C(=O)CNC(=O)c1ccnc2c(NC(=O)CCOCCOCCOCCOCCOCCOCCNC(=O)[C@H](CCCCNC(=O)CN3CCN(CC(=O)[O-])CCN(CC(=O)[O-])CCN(CC(=O)[O-])CC3)NC(=O)CCCc3ccc(I)cc3)cccc12.[177Lu+3] |  | mouse, U-87 MG tumour xenograft, kidneys | 4 h | 1.79 ± 0.52 %ID/g |
| COc1ccc(Nc2nc(Nc3ccc(OCCOCC[18F])cc3)ncc2Br)cc1 |  | ICR mice, S180 tumour, intestine | intravenous, 30 min, added: PF-562271 33 mg/kg oral block | 3.33 ± 0.07 %ID |
| COc1cccc(OC)c1-c1cc(C(=O)NC2(C(=O)O)C3CC4CC(C3)CC2C4)nn1-c1ccc(C(=O)N(C)CCCN(C)C(=O)[C@H](CCCCNC(=O)[C@H](CC(C)C)NC(=O)C2OC2C(=O)O)NC(=O)CN2CCN(CC(=O)[O-])CCN(CC(=O)[O-])CCN(CC(=O)[O-])CC2)cc1C(C)C.[177Lu+3] (mixture of isomers) |  | mouse, HT-29 xenograft, heart | 72 h post injection | 0.06 %ID/g |
| Cc1cc(C)n(CCN(CCN)CCCCCCNC(=O)[C@@H](N)Cc2c[nH]c3ccccc23)n1.[99Tc+].[C-]#[O+].[C-]#[O+].[C-]#[O+] |  | BALB/c nude mice, A549 xenograft, spleen | intravenous, 15 min | 2.21 ± 0.01 %IA/g |
| CCCC[C@H](NC(=O)CNC(=O)CNC(=O)[C@H](CCCCNC(=O)[C@H](CC(=O)O)NC(=O)C(C)c1ccc(CC(C)C)cc1)NC(=O)CN1CCN(CC(=O)O)CCN(CC(=O)O)CCN(CC(=O)O)CC1)C(=O)N[C@H]1CC(=O)NCCCC[C@@H](C(N)=O)NC(=O)[C@H](Cc2c[nH]c3ccccc23)NC(=O)[C@H](CCCNC(=N)N)NC(=O)[C@@H](Cc2ccccc2)NC(=O)[C@H](Cc2c[nH]cn2)NC1=O (stereo partly shown) [lutetium-177 labelled] |  | C57 mice, tumour-bearing, muscle | intravenous, 0.037 MBq, 4 h | 0.3 ± 0.06 %ID/g |
| COc1cccc(OC)c1-c1cc(C(=O)NC2(C(=O)O)C3CC4CC(C3)CC2C4)nn1-c1ccc(C(=O)N(C)CCCN(C)CCCN(C)C(=O)[C@H](CCCCNC(=O)[C@H](CC(C)C)NC(=O)C2OC2C(=O)O)NC(=O)CN2CCN(CC(=O)[O-])CCN(CC(=O)[O-])CCN(CC(=O)[O-])CC2)cc1C(C)C.[177Lu+3] (mixture of isomers) |  | mouse, HT-29 xenograft, heart | 168 h post injection | 0.11 %ID/g |
| CC(C)C[C@H](NC(=O)[C@@H](CCCCNC(=O)[C@@H](Cc1ccccc1)NC(=O)CCCCCCCNC(=O)CN1CCN(CC(=O)O)CCN(CC(=O)O)CCN(CC(=O)O)CC1)NC(=O)[C@H](Cc1ccc(O)cc1)NC(=O)[C@H](CO)NC(=O)[C@H](Cc1c[nH]c2ccccc12)NC(=O)[C@H](Cc1c[nH]cn1)NC(=O)[C@@H]1CCC(=O)N1)C(=O)N[C@@H](CCCNC(=N)N)C(=O)N1CCC[C@H]1C(=O)NCC(N)=O [indium-111 labelled] | biodistribution | male athymic nude mice, DU-145 prostate cancer xenograft, stomach | intravenous, 0.037 MBq, 4 h post-injection | 0.35 ± 0.1 %ID/g |
| COc1cccc(OC)c1-c1cc(C(=O)NC2(C(=O)O)C3CC4CC(C3)CC2C4)nn1-c1ccc(C(=O)NCCNC(=O)[C@H](CCCCNC(=O)[C@H](CC(C)C)NC(=O)C2OC2C(=O)O)NC(=O)CN2CCN(CC(=O)[O-])CCN(CC(=O)[O-])CCN(CC(=O)[O-])CC2)cc1C(C)C.[177Lu+3] (mixture of isomers) |  | mouse, HT-29 xenograft, liver | 4 h post injection | 1.3 %ID/g |
| [123I]c1ccc2nc(-c3ccc(-n4ccnn4)nc3)cn2c1 |  | Wistar rat, adrenals | intravenous, 24 h | not detected |
| O=C(O)CCCOc1ccc([18F])cc1-c1cc(-c2ccccc2C(F)(F)F)n(-c2ccccc2)n1 |  | mouse, small intestine | intravenous, dose not given, 360 min | 4.2 ± 0.79 %ID/g |
| COc1cccc(OC)c1-c1cc(C(=O)NC2(C(=O)O)C3CC4CC(C3)CC2C4)nn1-c1ccc(C(=O)N(C)CCOCCOCCN(C)C(=O)[C@H](CCCCNC(=O)[C@H](CC(C)C)NC(=O)C2OC2C(=O)O)NC(=O)CN2CCN(CC(=O)[O-])CCN(CC(=O)[O-])CCN(CC(=O)[O-])CC2)cc1C(C)C.[177Lu+3] (mixture of isomers) |  | mouse, HT-29 xenograft, lung | 72 h post injection | 0.3 %ID/g |
| CC(C)Cc1ccc(C(C)C(=O)N[C@@H](CCCCNC(=O)CCOCCOCCOCCOCCOCCOCCNC(=O)CN2CCN(CC(=O)[O-])CCN(CC(=O)[O-])CCN(CC(=O)[O-])CC2)C(=O)Nc2cccc3c(C(=O)NCC(=O)N4CC(F)(F)C[C@H]4C#N)ccnc23)cc1.[177Lu+3] (stereo partly shown) |  | mouse, U-87 MG tumour xenograft, spleen | 24 h | 0.68 ± 0.25 %ID/g |
| CCCC[C@H](NC(=O)COCCOCCNC(=O)CN1CCN(CC(=O)O)CCN(CC(=O)O)CC1)C(=O)N[C@H]1CC(=O)NCCCC[C@@H](C(N)=O)NC(=O)[C@H](Cc2c[nH]c3ccccc23)NC(=O)[C@H](CCCNC(=N)N)NC(=O)[C@@H](Cc2ccccc2)NC(=O)[C@H](Cc2c[nH]cn2)NC1=O [fluorine-18 labelled] |  | C57 mice B16-F10 melanoma, lung | intravenous, 0.37 MBq, 0.5 h | 2.28 ± 0.27 %ID/g |

Some of these lines once more:
| SMILES | test | system | conditions | tissue uptake |
| --- | --- | --- | --- | --- |
| CC(C)C[C@H](NC(=O)[C@@H](CCCCNC(=O)[C@@H](Cc1ccccc1)NC(=O)CCCCCCCNC(=O)CN1CCN(CC(=O)O)CCN(CC(=O)O)CCN(CC(=O)O)CC1)NC(=O)[C@H](Cc1ccc(O)cc1)NC(=O)[C@H](CO)NC(=O)[C@H](Cc1c[nH]c2ccccc12)NC(=O)[C@H](Cc1c[nH]cn1)NC(=O)[C@@H]1CCC(=O)N1)C(=O)N[C@@H](CCCNC(=N)N)C(=O)N1CCC[C@H]1C(=O)NCC(N)=O [indium-111 labelled] | biodistribution | male athymic nude mice, DU-145 prostate cancer xenograft, stomach | intravenous, 0.037 MBq, 4 h post-injection | 0.35 ± 0.1 %ID/g |
